# Measured values pooled from the literature.
# Compare with care: the assays were run in different laboratories. Numbers after ± are the reported error.
# DRD3: D(3) dopamine receptor (DRD3, Homo sapiens, UniProt P35462)
# Sequence of UniProt P35462 (whole entry, looked up): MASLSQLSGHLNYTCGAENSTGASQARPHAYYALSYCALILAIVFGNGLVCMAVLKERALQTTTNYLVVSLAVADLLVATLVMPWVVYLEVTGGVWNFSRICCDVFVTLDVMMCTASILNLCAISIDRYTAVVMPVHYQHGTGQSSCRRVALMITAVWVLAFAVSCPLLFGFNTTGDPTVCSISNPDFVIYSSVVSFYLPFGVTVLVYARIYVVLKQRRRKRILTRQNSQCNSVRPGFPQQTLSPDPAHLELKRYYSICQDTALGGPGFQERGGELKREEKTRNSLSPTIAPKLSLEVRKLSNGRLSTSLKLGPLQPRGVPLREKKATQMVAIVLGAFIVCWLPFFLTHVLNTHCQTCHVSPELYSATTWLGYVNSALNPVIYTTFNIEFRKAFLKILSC
# CNR2: Cannabinoid receptor 2 (CNR2, Homo sapiens, UniProt P34972)
# Sequence of UniProt P34972 (whole entry, looked up): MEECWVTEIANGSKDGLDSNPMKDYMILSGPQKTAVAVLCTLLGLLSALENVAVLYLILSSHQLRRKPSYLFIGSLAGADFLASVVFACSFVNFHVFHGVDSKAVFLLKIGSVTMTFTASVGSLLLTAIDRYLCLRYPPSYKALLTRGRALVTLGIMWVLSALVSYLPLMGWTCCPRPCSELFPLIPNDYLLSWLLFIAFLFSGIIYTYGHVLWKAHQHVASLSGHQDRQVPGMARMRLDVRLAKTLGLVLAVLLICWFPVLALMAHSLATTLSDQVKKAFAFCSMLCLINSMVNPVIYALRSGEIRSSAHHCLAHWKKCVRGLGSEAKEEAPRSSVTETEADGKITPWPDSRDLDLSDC
# CNR1: Cannabinoid receptor 1 (CNR1, Homo sapiens, UniProt P21554)
# Sequence of UniProt P21554 (whole entry, looked up): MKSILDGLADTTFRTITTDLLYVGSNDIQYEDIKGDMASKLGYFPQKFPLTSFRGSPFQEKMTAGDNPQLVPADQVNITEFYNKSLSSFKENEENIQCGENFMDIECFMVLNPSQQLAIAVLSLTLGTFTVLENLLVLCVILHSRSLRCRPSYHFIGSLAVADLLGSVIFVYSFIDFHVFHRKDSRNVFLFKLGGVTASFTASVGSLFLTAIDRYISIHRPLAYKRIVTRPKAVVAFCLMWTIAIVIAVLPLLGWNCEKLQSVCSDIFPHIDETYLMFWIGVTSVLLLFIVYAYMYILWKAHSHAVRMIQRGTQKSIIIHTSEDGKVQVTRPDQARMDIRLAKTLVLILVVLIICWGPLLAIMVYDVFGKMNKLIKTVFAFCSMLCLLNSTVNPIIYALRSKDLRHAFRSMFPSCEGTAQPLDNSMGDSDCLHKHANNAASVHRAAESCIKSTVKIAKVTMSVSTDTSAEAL
# Si: Sucrase-isomaltase, intestinal (Si, Rattus norvegicus, UniProt P23739)
# Sequence of UniProt P23739 (whole entry, looked up): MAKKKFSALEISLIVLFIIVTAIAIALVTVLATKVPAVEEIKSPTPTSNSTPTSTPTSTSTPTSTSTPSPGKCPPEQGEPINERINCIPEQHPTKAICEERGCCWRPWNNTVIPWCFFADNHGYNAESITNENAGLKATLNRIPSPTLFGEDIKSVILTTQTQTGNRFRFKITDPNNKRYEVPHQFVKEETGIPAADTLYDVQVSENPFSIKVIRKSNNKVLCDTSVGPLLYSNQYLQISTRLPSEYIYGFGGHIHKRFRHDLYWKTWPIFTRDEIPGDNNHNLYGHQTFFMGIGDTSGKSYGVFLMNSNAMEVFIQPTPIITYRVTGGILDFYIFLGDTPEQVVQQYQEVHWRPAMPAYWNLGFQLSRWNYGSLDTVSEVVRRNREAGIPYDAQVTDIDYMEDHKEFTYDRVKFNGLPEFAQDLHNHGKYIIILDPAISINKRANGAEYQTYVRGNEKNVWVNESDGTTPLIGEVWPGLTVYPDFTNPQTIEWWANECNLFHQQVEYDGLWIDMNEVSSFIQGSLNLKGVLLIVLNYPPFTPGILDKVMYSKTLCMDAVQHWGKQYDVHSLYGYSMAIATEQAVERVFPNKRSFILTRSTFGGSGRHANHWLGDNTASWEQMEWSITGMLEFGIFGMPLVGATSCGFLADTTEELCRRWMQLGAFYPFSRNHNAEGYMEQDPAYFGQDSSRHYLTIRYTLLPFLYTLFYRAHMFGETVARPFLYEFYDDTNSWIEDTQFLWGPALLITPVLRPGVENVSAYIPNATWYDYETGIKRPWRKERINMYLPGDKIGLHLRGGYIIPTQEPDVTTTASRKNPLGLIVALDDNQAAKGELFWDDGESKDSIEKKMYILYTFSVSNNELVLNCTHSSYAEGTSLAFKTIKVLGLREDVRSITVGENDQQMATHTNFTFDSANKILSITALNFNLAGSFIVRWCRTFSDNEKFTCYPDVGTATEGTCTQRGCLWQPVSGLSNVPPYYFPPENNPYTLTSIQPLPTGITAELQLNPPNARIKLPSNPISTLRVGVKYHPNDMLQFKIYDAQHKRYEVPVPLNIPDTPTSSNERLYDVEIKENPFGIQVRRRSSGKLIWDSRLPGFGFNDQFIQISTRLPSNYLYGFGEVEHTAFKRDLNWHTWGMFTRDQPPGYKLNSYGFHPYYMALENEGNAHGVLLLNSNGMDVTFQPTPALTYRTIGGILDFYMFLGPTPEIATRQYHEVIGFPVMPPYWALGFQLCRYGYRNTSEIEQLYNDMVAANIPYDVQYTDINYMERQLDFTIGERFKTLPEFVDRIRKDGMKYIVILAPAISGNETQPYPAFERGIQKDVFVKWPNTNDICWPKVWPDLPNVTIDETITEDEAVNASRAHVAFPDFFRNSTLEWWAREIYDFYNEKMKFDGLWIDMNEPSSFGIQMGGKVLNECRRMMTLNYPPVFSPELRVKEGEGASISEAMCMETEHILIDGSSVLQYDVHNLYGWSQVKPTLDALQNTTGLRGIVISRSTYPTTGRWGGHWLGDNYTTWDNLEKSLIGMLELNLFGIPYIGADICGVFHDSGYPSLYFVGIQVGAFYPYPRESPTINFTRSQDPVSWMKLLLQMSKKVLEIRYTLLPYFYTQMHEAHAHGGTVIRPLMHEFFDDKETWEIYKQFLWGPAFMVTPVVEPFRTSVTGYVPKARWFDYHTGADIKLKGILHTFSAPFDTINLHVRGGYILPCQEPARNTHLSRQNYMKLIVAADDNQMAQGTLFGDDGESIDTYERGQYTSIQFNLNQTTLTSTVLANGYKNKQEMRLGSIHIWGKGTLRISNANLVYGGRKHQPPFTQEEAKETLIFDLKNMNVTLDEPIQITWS
# Sequence of UniProt Q9UPC5 (whole entry, looked up): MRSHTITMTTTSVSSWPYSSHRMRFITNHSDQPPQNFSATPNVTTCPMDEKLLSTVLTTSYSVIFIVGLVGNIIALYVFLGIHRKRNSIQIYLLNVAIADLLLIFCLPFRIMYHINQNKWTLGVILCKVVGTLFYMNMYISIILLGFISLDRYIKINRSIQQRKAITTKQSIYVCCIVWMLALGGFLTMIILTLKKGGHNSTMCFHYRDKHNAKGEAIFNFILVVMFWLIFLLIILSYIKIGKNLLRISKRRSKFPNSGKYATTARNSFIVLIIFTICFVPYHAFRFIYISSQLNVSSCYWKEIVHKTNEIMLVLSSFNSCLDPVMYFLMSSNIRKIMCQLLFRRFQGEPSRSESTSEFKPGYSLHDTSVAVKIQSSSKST
# Sequence of UniProt P52564 (whole entry, looked up): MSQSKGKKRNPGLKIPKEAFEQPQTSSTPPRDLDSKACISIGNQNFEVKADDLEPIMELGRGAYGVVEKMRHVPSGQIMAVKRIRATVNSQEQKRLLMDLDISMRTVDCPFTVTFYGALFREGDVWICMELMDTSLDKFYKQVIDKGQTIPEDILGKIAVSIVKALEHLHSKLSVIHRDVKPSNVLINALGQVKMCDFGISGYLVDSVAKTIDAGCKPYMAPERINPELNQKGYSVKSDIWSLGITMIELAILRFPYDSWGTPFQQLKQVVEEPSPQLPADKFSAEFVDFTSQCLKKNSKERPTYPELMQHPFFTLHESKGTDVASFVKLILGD
# Sequence of UniProt P00751 (whole entry, looked up): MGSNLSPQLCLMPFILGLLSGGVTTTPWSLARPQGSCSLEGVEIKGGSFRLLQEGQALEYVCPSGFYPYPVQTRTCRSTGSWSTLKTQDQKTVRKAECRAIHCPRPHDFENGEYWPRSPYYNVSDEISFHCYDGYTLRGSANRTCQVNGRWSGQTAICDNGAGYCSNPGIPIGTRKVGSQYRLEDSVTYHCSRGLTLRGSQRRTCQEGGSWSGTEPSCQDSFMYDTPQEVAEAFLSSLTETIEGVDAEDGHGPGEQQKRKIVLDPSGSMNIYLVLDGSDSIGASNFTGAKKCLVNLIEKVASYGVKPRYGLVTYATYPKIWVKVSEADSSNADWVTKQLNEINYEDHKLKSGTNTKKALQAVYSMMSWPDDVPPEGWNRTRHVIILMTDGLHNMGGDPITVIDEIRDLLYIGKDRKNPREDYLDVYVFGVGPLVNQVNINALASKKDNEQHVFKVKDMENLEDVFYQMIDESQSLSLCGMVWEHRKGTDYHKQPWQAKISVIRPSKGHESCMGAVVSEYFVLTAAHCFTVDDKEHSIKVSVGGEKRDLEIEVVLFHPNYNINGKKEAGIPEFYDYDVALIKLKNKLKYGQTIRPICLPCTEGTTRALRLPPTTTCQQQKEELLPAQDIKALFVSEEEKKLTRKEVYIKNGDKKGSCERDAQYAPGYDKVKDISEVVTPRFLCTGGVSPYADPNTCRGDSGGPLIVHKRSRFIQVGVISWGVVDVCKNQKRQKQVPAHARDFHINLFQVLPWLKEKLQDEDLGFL
# Sequence of UniProt P41586 (whole entry, unmodified, looked up): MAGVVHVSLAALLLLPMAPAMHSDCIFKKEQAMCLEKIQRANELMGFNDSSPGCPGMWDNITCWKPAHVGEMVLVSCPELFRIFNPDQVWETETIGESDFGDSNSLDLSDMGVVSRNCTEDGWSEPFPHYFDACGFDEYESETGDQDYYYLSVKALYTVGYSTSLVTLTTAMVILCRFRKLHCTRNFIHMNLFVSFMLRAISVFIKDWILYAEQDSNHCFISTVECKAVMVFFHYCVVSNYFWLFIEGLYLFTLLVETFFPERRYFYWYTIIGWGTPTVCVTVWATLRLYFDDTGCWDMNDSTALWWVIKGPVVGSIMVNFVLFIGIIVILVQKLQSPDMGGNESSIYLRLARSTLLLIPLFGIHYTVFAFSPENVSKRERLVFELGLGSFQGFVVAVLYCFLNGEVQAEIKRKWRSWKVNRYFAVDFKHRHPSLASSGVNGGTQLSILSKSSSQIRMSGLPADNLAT
Compound,target or system,test,test system,setting,scale,endpoint,result
CCC[C@H](C(=O)c1ccccc1)N1CCCC1,"SLC6A4 (Homo sapiens, UniProt P31645, Y95F)","transporter uptake, inhibitor, radiometric",,,,Ki,318000 nM
CC(C)(CO)NCc1ccc(-c2cc(Cl)cc(Cl)c2)o1,DRD3,binding,,,,Ki,200 nM
CCCCCn1cc(C(=O)c2cccc3ccccc23)c2ccccc21,CNR2,"cAMP, agonist",,,,EC50,1.62 nM
O=C1NC2(CC2)COc2ncc(F)cc2[C@H]2COCCN2c2ccn3ncc1c3n2,,,"Sprague-Dawley rat, male, serum","oral, 10 mg/kg/day, 4 weeks daily, end of recovery period",,potassium,4.6 ± 0.18 mmol/L
CC[C@H](C)[C@H](NC(=O)[C@H](CO)NC(=O)[C@H](CC(N)=O)NC(=O)[C@H](CC(C)C)NC(=O)[C@H](Cc1ccc(O)cc1)NC(=O)[C@H](CCCCN)NC(=O)[C@H](CCCCN)NC(=O)[C@@H](NC(=O)[C@H](C)NC(=O)[C@H](CCSC)NC(=O)[C@H](CCC(N)=O)NC(=O)[C@H](CCCCN)NC(=O)[C@H](CCCN=C(N)N)NC(=O)[C@H](CC(C)C)NC(=O)[C@H](CCCN=C(N)N)NC(=O)[C@@H](NC(=O)[C@H](Cc1ccc(O)cc1)NC(=O)[C@H](CC(N)=O)NC(=O)[C@H](CC(=O)O)NC(=O)[C@@H](NC(=O)[C@H](Cc1ccccc1)NC(=O)[C@@H](NC(=O)[C@H](C)NC(=O)[C@H](CC(=O)O)NC(=O)[C@H](CO)NC(=O)[C@@H](N)Cc1c[nH]cn1)C(C)C)[C@@H](C)O)[C@@H](C)O)C(C)C)C(=O)N[C@@H](CC(C)C)C(=O)N[C@@H](CC(N)=O)C(N)=O,"ADCYAP1R1 (Homo sapiens, UniProt P41586, del89-109)","G11 dissociation, agonist, BRET2 TRUPATH",COS-7,37 °C,,EC50,479 nM
Cc1ccc2c(C(C[N+](=O)[O-])c3cccs3)c(-c3ccccc3)[nH]c2c1 (stereo not shown),CNR1,"G protein activation, agonist, BRET",,,,EC50,140 nM
O=C(Cc1ccc(OCc2ccccc2)cc1)NC1(C(=O)O)CCN(C(=O)c2ccc(-c3cccc(Cl)c3)cc2)CC1,"Probable G-protein coupled receptor 34 (Homo sapiens, UniProt Q9UPC5)","G protein activation, antagonist, BRET",,,,IC50,258 nM
c1ccc2c(c1)OC[C@@H](CNCc1cccc3cccnc13)O2,DRD3,binding,,,,Ki,100 nM
CC(C)[C@H]1NC(=O)C[C@H]2/C=C/CCSSC[C@@H](NC1=O)C(=O)N[C@H](Cc1cccc3ccccc13)C(=O)NCC(=O)O2,"PRKCH (Homo sapiens, UniProt P24723)","enzyme activity, inhibitor",,10 µM,,inhibition,1.8%
CCCCCn1cc(C(=O)c2ccc3c(c2)CC(C)(C)C3)c2ccccc21,CNR2,"cAMP, agonist",,,,EC50,33.1 nM
CCN(CC)C(=O)[C@@H]1C=C2c3cccc4c3c(cn4C(=O)c3ccco3)C[C@H]2N(C)C1,"HTR1A (Homo sapiens, UniProt P08908)","ligand displacement, radioligand",,,,Ki,385 nM
CCCCCc1cc(O)c2c(c1)OC(C)(C)C1=C2[C@@H](O)[C@@](C)(O)CC1,Si,"enzyme activity, inhibitor, absorbance",,,,IC50,410000 nM
COc1ccccc1C(C[N+](=O)[O-])c1c(-c2ccccc2)[nH]c2ccccc12 (stereo not shown),"Cannabinoid receptor 1, with Gi1 (CNR1, Homo sapiens, UniProt P21554)","Gi1 dissociation, agonist, BRET",HEK293,,,EC50,320 ± 30 nM
CC[C@H](C)[C@H](NC(=O)[C@H](CO)NC(=O)[C@H](Cc1ccc(O)cc1)NC(=O)[C@H](Cc1ccc(O)cc1)NC(=O)[C@H](CC(N)=O)NC(=O)CNC(=O)[C@H](CO)NC(=O)[C@H](Cc1ccc(O)cc1)NC(=O)[C@H](CO)NC(=O)[C@H](CO)NC(=O)[C@H](CC(N)=O)NC(=O)COCCOCCNC(=O)CN1CCN(CC(=O)O)CCN(CC(=O)O)CCN(CC(=O)O)CC1)C(=O)N[C@@H](CC(C)C)C(N)=O [copper-64 labelled],,dynamic PET,"KPC mouse Ptf1a-CreER tdTomato, metastases","intravenous, dose not given, 1.9 min, 84 d after tamoxifen",,tissue uptake,15.4 %ID/mL
CO[C@H]1CCN(Cc2c(C)cc(C)c3[nH]ccc23)[C@H](CO)C1,"Complement factor B (Homo sapiens, UniProt P00751)","enzyme activity, inhibitor",,,,IC50,3500 nM
CC(C)(C)C(=O)OCOP(=O)(OCOC(=O)C(C)(C)C)C1CCCN(O)C1=O (stereo not shown),CCRF-CEM,,,,,Log10GI50,-6.73 log M
O=C1NC(=O)c2c1c1cc(F)c[n+]3c1c1c2c2cc(O)ccc2[n]1[Ru-4]312([N]=C=S)[S+]3CC[S+]1CC[S+]2CC3 (stereo not shown),"AXL (Homo sapiens, UniProt P30530)",enzyme activity,,"100 nM, human enzyme, added: 10 µM ATP",reference: untreated,remaining activity,63%
CC(C)CC(C(=O)N1CC2(CC1C#N)C(=O)Nc1ccccc12)N(C)C(=O)c1cc2c(F)cc(F)c(F)c2[nH]1 (stereo not shown),"Cathepsin E (CTSE, Homo sapiens, UniProt P14091)","enzyme activity, inhibitor",,,,IC50,> 100000 nM
COc1ccccc1-c1n[nH]c2nc(NC3CCN(C(=O)Cc4ccc(F)cc4F)CC3)ncc12,,"bead binding, competition bead pull-down, item: LMJF.30.2550",Leishmania donovani axenic amastigote extract,10 µM,reference: vehicle,relative abundance,0.85
CCN(CC)C(=O)c1ccc(C(c2cccc(O)c2)N2CC(C)N(Cc3ccccc3)CC2C)cc1 (stereo not shown),"OPRD1 (Homo sapiens, UniProt P41143, Y129F)",agonist,,,,EC50,0.061 nM
CS(C)(=O)=Nc1ccc(-c2ccc(-c3nc4cc(O[C@@H]5CO[C@H]6[C@@H]5OC[C@H]6O)[nH]c4cc3F)cc2)cc1,"ABL2 (Homo sapiens, UniProt P42684)","enzyme activity, inhibitor",,10 µM,,inhibition,-11%
CN(C)[C@H]1C[C@@]23CC[C@@]4(O2)C(=CC[C@]2(C)[C@@H](c5ccc6ccncc6c5)CC[C@H]24)C=C3[C@@H](O)[C@@H]1O,"MAP2K6 (Homo sapiens, UniProt P52564)","ATP probe labelling, inhibitor, KiNativ profiling",,0.1 µM,,inhibition,6.4%
O=[N+]([O-])CC(c1cccs1)c1c(-c2ccccc2)[nH]c2ccccc12 (stereo not shown),CNR1,"G protein activation, agonist, BRET",,,,EC50,280 nM
CCCc1cc(O)c2c(c1)OC(C)(C)C1=C2[C@@H](O)[C@@](C)(O)CC1,Si,"enzyme activity, inhibitor, absorbance",,,,IC50,540000 nM
CC(C)n1nc(-c2ccc3cc(OCc4cccc(Cl)c4)ccc3c2)c2c(N)ncnc21,"LYN (Homo sapiens, UniProt P07948)","enzyme activity, inhibitor",,,,Ki,3800 nM

# Repeated from above:
Compound,target or system,test,test system,setting,scale,endpoint,result
COc1ccccc1C(C[N+](=O)[O-])c1c(-c2ccccc2)[nH]c2ccccc12 (stereo not shown),"Cannabinoid receptor 1, with Gi1 (CNR1, Homo sapiens, UniProt P21554)","Gi1 dissociation, agonist, BRET",HEK293,,,EC50,320 ± 30 nM
Cc1ccc2c(C(C[N+](=O)[O-])c3cccs3)c(-c3ccccc3)[nH]c2c1 (stereo not shown),CNR1,"G protein activation, agonist, BRET",,,,EC50,140 nM
CCC[C@H](C(=O)c1ccccc1)N1CCCC1,"SLC6A4 (Homo sapiens, UniProt P31645, Y95F)","transporter uptake, inhibitor, radiometric",,,,Ki,318000 nM
